# Measurements of several laboratories.
# Every numbered part comes from another study and shows a few of its results, in no order.

# Block 1 — method: protein binding microarray; molecule type: double-stranded DNA, one strand shown; medium: in vitro; concentration: not given; reference: not given; reading: higher = stronger binding
# Target: Histone acetyltransferase KAT6A, winged helix 1, GST fusion (KAT6A, Homo sapiens, UniProt Q92794, residues 1-85)
# Setting: 8-mer, flanks averaged, mean of 2 arrays, mostly near background
# Target sequence (chain): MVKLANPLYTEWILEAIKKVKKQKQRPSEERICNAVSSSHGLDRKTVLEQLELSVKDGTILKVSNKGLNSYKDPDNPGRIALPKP
Strand,E-score
GAGAGCCC,-0.0584
CTCTACGC,-0.0927
AATGTCAA,-0.193
TCACTGGA,-0.146

# Block 2 — method: RNA Bind-n-Seq; molecule type: RNA; medium: in vitro; concentration: 200 nM; setting: whole 134-nt RNA, ends assumed; added: 150 mM KCl; reference: input library; reading: higher = stronger binding
# Target: Fragile X messenger ribonucleoprotein 1, C-terminal low-complexity region (Fmr1, Mus musculus, UniProt P35922)
# Shared flanks, not repeated: GGGAGUUCUACAGUCCGACGAUC … UGGAAUUCUCGGGUGUCAAGG
Strand,log2 enrichment
AGUCCUGUGCUACACAUCGUAUGUACCGAAUCGGGGUUUUUGGGUUUUUGGUUUUUGGAAAGUAUUAUGUUACGCCGUUCGGAUCUGCAC,-0.358
CACAGUCAACACGCACCCACACAGACACAGAGGGAAGGGGUUGGGAUGGGGACAGGGUGCACAGCAGGGCGGGGUAGGACCCCAGCCCCU,1.36
GCAGGAAGUAAAAACAAAUGGAAAUGCUUCGGAUAGUGGCAGGGGUGGGGGUUGCUAAGGAAAGGGUGGGAUGGGAGUGGGUAAAGAGUU,0.286
CCUGUGCUACACAUCGUAUGUACCGAAUCGGGUUUUUUGGGGUUUUUUGGUUUUUUGGGGAAAGUAUUAUGUUACGCCGUUCGGAUCUGC,-0.363
CCUCAAGUCCUGUGCUACACAUCGUAUGUACCGAAUCGGGGAGGGGAGGGAGGAAAGUAUUAUGUUACGCCGUUCGGAUCUGCACUUCCA,0.58
AUGGAUGACCCCUCUGUGGGCCCCAAGAUCCCCCAGGCUUUGGAGAAGAUCCUGCAGCUGAAGGAGAGCCGCCAGGAAGAGAUGAAUUCU,-1.22

# Block 3 — method: protein-binding microarray; molecule type: double-stranded DNA, one strand shown; medium: in vitro; concentration: 2540 nM top; setting: 60-bp whole probe; added: salmon DNA 0.4 mg/ml; reference: random background probes; reading: higher = stronger binding
# Target: Interferon regulatory factor 3, full length, phosphomimetic (IRF3, Homo sapiens, UniProt Q14653, residues 1-427, S386D/S396D/S398D/S402D/T404D/S405D)
# Sequence of UniProt Q14653 (whole entry, unmodified, looked up): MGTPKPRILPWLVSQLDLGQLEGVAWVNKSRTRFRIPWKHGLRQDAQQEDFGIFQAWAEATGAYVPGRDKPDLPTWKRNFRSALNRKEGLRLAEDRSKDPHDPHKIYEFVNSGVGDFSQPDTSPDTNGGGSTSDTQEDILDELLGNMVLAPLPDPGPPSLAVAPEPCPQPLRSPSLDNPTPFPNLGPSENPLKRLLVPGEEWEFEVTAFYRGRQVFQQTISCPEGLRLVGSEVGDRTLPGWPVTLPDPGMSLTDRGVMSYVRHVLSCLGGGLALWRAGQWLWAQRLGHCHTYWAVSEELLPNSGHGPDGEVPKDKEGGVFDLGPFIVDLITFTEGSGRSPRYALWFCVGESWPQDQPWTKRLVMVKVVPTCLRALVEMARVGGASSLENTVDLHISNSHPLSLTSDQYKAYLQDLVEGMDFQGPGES
Strand,fitted relative affinity
GCCTAGCACTTAGGTCTCGGTCTCAGTTAGTGCTAGGTCTTGATTCGCTTGACGCTGCTG,0.878 z-score
GCCTAGCACGACGATATCAGCCTGGAGACGTGCTAGGTCTTGATTCGCTTGACGCTGCTG,-0.0602 z-score
GCCTAGCACTTCGGTTTCGGTTCCGGTTAGTGCTAGGTCTTGATTCGCTTGACGCTGCTG,10.8 z-score
GCCTAGCACTCATGTTTGTCACTCTCACTGTGCTAGGTCTTGATTCGCTTGACGCTGCTG,0.486 z-score

# Other studies, line by line
Substance,target,test,system,conditions,scale,endpoint,value
"PhoQ, residues 284 288 289 292 302 303 TASMAF","PhoP, residues 12 14 15 18 19 LHSVW (Escherichia coli, UniProt P23836)","Sort-seq, refers to: YFP reporter",E. coli,"PhoQ-PhoP variant library, added: 10 µM Mg2+","reference: high Mg2+ state, higher = stronger signaling",fold induction,11.7

# Some of these lines once more (block 3):
Strand,fitted relative affinity
GCCTAGCACTTAGGTCTCGGTCTCAGTTAGTGCTAGGTCTTGATTCGCTTGACGCTGCTG,0.878 z-score
